Experimental data from different studies.
Compare with care: the assays were run in different laboratories. “And” joins repeats or separate records; there may be more than shown. ± marks the error that the study gave.
KEAP1: Kelch-like ECH-associated protein 1 (KEAP1, Homo sapiens, UniProt Q14145)
UniProt Q14145, sequence (whole entry, looked up): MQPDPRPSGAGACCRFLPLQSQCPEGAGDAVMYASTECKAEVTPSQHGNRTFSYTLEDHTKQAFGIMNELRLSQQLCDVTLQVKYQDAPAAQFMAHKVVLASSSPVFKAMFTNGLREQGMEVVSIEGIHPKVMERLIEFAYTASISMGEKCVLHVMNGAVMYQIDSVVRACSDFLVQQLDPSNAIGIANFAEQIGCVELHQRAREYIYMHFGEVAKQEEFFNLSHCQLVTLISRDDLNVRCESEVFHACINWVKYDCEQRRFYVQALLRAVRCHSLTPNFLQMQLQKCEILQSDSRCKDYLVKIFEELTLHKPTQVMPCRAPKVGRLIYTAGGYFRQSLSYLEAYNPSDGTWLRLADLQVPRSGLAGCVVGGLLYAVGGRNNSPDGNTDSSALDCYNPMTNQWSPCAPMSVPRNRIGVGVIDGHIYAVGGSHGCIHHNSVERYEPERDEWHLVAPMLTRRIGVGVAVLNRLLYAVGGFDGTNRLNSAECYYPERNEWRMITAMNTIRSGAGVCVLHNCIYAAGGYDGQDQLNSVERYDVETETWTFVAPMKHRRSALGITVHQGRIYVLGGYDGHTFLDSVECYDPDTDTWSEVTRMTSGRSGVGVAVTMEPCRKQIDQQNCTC
sdiA: Regulatory protein SdiA (sdiA, Escherichia coli, UniProt P07026)
UniProt P07026, sequence (whole entry, looked up): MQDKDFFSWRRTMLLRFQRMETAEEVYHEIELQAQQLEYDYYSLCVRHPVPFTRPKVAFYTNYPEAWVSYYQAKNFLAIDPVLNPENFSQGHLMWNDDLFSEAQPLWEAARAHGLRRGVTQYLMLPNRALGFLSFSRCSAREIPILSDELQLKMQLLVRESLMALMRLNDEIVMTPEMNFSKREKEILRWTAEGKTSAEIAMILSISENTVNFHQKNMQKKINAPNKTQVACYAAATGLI
NUAK2: NUAK family SNF1-like kinase 2 (NUAK2, Homo sapiens, UniProt Q9H093)
UniProt Q9H093, sequence (whole entry, looked up): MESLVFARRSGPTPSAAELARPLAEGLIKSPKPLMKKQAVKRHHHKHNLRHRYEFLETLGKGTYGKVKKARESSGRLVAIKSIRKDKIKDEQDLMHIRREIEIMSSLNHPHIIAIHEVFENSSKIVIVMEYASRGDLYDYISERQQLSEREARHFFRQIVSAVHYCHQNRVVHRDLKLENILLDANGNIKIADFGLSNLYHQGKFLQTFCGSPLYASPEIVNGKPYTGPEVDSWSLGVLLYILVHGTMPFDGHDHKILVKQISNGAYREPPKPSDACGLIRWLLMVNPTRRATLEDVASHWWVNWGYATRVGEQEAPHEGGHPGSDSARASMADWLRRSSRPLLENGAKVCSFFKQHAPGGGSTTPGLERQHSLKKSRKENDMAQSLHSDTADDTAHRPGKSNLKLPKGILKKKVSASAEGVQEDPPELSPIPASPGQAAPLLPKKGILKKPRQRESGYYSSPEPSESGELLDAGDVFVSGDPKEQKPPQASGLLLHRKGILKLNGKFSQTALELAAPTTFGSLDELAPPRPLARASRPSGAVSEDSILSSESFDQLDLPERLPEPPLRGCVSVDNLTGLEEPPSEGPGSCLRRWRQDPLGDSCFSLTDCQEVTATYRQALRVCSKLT
Uncharacterized hydrolase SAUSA300_2518: Uncharacterized hydrolase SAUSA300_2518 (Staphylococcus aureus, UniProt Q2FDS6)
UniProt Q2FDS6, sequence (whole entry, looked up): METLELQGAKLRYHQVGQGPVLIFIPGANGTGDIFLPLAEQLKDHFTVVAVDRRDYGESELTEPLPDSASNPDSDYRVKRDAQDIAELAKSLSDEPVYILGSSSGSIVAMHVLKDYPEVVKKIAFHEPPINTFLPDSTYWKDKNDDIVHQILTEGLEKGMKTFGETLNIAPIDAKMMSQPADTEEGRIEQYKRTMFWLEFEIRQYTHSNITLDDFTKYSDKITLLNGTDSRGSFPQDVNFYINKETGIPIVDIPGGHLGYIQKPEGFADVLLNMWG
Oprm1: Mu-type opioid receptor (Oprm1, Rattus norvegicus, UniProt P33535)
UniProt P33535, sequence (whole entry, looked up): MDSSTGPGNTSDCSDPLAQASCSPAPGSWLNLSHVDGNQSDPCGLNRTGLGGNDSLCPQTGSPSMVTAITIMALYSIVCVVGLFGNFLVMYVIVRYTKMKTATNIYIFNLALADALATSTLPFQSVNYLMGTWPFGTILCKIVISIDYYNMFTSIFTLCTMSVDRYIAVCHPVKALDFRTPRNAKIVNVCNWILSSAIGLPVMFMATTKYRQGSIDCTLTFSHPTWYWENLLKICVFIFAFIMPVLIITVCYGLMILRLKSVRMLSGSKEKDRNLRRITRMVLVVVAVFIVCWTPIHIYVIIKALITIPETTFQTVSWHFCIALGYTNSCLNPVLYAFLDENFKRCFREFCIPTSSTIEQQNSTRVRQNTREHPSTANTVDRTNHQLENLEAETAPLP
lasR: Transcriptional activator protein LasR (lasR, Pseudomonas aeruginosa, UniProt P25084)
UniProt P25084, sequence (whole entry, looked up): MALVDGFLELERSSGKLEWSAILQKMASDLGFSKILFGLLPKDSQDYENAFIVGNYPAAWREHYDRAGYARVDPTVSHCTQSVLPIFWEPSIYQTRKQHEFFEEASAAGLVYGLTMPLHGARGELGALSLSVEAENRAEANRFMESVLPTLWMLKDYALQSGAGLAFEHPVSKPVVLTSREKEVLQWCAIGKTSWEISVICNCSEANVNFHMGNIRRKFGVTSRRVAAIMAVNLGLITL
UniProt Q9Y2J8, sequence (whole entry, looked up): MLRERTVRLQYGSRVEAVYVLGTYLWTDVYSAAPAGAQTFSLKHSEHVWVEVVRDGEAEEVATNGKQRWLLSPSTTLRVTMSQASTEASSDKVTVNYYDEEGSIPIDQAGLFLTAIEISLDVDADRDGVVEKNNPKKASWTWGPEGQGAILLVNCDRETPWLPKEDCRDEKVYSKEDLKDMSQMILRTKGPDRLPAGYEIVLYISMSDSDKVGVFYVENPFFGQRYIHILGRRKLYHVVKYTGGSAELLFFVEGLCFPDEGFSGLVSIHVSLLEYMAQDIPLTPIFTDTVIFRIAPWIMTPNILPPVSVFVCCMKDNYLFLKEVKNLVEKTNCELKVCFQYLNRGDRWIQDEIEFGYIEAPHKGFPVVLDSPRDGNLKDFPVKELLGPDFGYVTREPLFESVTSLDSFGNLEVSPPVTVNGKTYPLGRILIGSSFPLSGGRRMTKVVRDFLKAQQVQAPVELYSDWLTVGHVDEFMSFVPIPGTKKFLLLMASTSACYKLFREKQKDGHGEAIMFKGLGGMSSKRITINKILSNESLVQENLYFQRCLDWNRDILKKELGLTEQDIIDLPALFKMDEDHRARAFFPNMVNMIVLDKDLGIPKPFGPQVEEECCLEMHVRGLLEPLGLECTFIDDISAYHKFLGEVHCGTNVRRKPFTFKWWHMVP
UniProt P27361, sequence (whole entry, looked up): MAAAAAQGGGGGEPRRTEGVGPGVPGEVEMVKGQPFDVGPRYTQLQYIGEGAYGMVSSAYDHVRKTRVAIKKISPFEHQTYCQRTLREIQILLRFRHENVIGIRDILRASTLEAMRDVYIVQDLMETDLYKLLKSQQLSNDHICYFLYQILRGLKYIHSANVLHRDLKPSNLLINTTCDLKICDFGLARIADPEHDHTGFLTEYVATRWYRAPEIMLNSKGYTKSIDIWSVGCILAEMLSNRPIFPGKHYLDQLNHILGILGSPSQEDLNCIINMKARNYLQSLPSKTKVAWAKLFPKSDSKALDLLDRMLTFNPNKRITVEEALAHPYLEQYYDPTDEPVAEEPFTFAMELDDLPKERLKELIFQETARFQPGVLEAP
UniProt P52699, sequence (whole entry, looked up): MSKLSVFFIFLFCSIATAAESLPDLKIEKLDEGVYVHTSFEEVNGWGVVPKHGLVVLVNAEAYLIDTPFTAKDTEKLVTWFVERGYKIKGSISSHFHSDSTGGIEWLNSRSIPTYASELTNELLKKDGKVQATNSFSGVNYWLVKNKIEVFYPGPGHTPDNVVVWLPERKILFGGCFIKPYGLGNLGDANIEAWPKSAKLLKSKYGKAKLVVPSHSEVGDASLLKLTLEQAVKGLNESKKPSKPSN
UniProt Q06187, sequence (whole entry, looked up): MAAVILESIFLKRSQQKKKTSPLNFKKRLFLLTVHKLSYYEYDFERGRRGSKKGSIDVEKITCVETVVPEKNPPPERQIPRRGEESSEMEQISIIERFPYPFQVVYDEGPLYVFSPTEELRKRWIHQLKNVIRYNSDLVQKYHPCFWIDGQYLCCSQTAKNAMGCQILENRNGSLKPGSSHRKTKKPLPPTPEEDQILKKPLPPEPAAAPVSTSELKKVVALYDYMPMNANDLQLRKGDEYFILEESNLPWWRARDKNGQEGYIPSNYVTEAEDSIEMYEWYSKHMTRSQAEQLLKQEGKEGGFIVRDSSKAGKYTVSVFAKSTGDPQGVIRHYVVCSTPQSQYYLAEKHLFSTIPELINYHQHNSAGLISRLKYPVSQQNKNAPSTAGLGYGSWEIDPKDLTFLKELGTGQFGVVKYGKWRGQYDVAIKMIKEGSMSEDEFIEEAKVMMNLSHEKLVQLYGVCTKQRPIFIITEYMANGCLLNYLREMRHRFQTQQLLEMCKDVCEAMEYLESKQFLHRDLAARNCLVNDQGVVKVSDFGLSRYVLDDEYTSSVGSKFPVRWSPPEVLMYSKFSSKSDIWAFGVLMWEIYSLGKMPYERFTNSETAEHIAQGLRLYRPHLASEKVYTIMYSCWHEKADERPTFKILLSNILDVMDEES
UniProt Q9WTL7, sequence (whole entry, looked up): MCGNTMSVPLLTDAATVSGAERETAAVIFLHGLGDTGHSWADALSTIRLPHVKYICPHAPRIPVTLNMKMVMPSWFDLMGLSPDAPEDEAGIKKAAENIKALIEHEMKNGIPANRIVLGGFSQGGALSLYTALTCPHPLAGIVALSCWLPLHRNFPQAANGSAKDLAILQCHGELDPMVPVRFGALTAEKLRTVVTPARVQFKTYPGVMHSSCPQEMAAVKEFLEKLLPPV
UniProt Q96ES7, sequence (whole entry, looked up): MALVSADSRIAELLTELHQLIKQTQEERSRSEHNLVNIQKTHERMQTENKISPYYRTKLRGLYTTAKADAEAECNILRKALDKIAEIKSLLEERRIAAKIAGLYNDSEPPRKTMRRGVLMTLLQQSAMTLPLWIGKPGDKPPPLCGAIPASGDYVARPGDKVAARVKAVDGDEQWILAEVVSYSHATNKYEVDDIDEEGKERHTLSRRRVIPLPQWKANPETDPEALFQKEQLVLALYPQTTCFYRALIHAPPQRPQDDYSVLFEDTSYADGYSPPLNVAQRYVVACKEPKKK

O=C1NC(=O)c2c1c1cc(F)c[n+]3c1c1c2c2cc(O)ccc2[n]1[Ru-4]312([N]=C=S)[S+]3CC[S+]1CC[S+]2CC3 (stereo not drawn) gave a remaining activity of 80% (NEK2 (Homo sapiens, UniProt P51955); enzyme activity; 100 nM, human enzyme, with: 10 µM ATP; relative to: untreated).
With N[C@H](C(=O)N1CCCC1)C1CCN(c2nccc3c(-c4ncc(Cl)cc4Cl)cccc23)CC1 the kcat was 0.175 s⁻¹ and 0.117 s⁻¹ (PADI2 (Homo sapiens, UniProt Q9Y2J8); enzyme activity; 0.6144 µM, low-affinity site, with: Ca2+ 0.25 mM).
With CC(C)[C@@H]1NC(=O)[C@H](CC(N)=O)NC(=O)CNC(=O)[C@H](CC(N)=O)NC(=O)[C@H](C)NC(=O)[C@H](CC(=O)O)NC(=O)[C@H]([C@@H](C)O)NC(=O)[C@H](CCC(=O)O)NC(=O)CNC(=O)[C@H]([C@@H](C)O)NC(=O)[C@H](CCC(=O)O)NC(=O)[C@H](CCC(=O)O)NC(=O)[C@H](CC(=O)O)NC1=O the fluorescence polarization was 0.842 a.u. and 0.723 a.u. (KEAP1; Keap1-Nrf2 binding, inhibitor, competitive FP; 0.0977 µM, 30 min, with: Nrf2 peptide probe; lower = stronger inhibition).
CCCCCC(=O)N[C@H]1CCSC1=O has an Emax of 113% (sdiA).
CCc1nnc(-c2c(OC)cc(-c3cnc4cc(-c5cnn(C)c5)ccn34)cc2OC)o1 has a remaining binding of 89.1% (HTR2B (Homo sapiens, UniProt P41595); agonist radioligand, radioligand binding; 10 µM, SafetyScreen44 5-HT2B mean; lower = stronger displacement).
The fluorescence polarization of CC(C)C[C@@H]1NC(=O)[C@H](C(C)C)NC(=O)[C@H](CCC(=O)O)NC(=O)CNC(=O)[C@H]([C@@H](C)O)NC(=O)[C@H](CCC(=O)O)NC(=O)[C@H](CCC(=O)O)NC(=O)[C@H](CC(=O)O)NC(=O)[C@H](C(C)C)NC(=O)[C@H]([C@@H](C)O)NC(=O)CNC(=O)[C@H](CC(=O)O)NC(=O)[C@@H]2CCCN2C1=O is reported as 1.04 a.u. and 0.968 a.u. (KEAP1; Keap1-Nrf2 binding, inhibitor, competitive FP; 0.0015 µM, 30 min, with: Nrf2 peptide probe; lower = stronger inhibition).
The inhibition of CC(C)[C@H]1NC(=O)C[C@H]2/C=C/CCSSC[C@@H](NC1=O)C(=O)N[C@H](Cc1cccc3ccccc13)C(=O)NCC(=O)O2 is reported as -8.7% (MAP4K2 (Homo sapiens, UniProt Q12851); enzyme activity, inhibitor; 10 µM).
COc1ccccc1-c1n[nH]c2nc(NC3CCN(C(=O)Cc4ccc(F)cc4F)CC3)ncc12 gave a remaining binding of 13% (cyclin 3 (Leishmania donovani, UniProt A0A3Q8IHJ8); competition bead pull-down, measured: LINJ.30.0080; Leishmania donovani extract; 10 µM; relative to: vehicle).
C[C@H](NCc1ccc(-c2ccc(C(F)(F)F)cc2)cc1)C(N)=O gave an inhibition of 0% (NUAK2; cell-free assay, competition with immobilised ligand; 1 µM).
O=C(O)c1cccc(CP(=O)(O)O)n1 has a kon of 0.08 ± 0.02 µM⁻¹ min⁻¹ (Metallo-beta-lactamase type 2 (Serratia marcescens, UniProt P52699); enzyme activity, inhibitor; with: nitrocefin).
The Hill coefficient of COc1ccccc1-c1n[nH]c2nc(N[C@H]3CC[C@H](NS(=O)(=O)CC(C)C)CC3)ncc12 is reported as 1.18 and 1 (cdc2-related kinase 12 (Leishmania donovani, UniProt A0A3S7WQK2); binding, kinobead competition; Leishmania donovani extract).
CC[C@H](C)[C@H](NC(=O)[C@@H](NC(=O)c1cccc(Cl)c1Cl)C(C)(C)C)C(=O)N[C@H](C(=O)N[C@H](C(=O)N[C@H](C(=O)N[C@@H](CCC(N)=O)C(=O)N[C@@H](Cc1c[nH]cn1)C(=O)N[C@H](CC(C)C)C(=O)N[C@@H](CO)C(=O)NCCOCCOCC(=O)N[C@@H](CCCCNC(=O)CC[C@@H]1NC(=O)[C@@H](CCCNC(=N)N)NC(=O)[C@H](CCCNC(=N)N)NC(=O)[C@@H](CCCNC(=N)N)NC(=O)[C@H](CCCNC(=N)N)NC(=O)[C@H](Cc2ccc3ccccc3c2)NC(=O)[C@@H](Cc2ccccc2)NC1=O)C(N)=O)[C@@H](C)O)[C@@H](C)CC)C(C)(C)C has a relative potency of roughly 4 fold (Protein phosphatase 3 catalytic subunit alpha, with calcineurin B (PPP3CA, Homo sapiens, UniProt Q08209); fluorescence polarisation competition; relative to: reference peptide).
OB(O)c1cnn(-c2cccc(Cl)c2)c1 gave a selectivity ratio of 83300 (CELA1 (Sus scrofa, UniProt P00772); pNA substrate hydrolysis; relative to: Ki protease over Ki AmpC).
CCNC(=S)NN=Cc1c2ccccc2cc2ccccc12.Cc1ccc(C(C)C)cc1.[Cl-].[Cl-].[Ru+2] gave a binding constant of 6.31 ± 0.23 10⁴ M⁻¹ (Albumin (ALB, Homo sapiens, UniProt P02768); modified Stern-Volmer; 296 K).
The remaining activity of O=S(=O)(F)c1cccc2c1OCC2 is reported as 108% and 102% (Uncharacterized hydrolase SAUSA300_2518; enzyme activity, inhibitor, fluorogenic substrate; 50 µM).
For CC[C@@H](C)[C@@H]1CN([C@H](Cc2ccc3ccccc3c2)CN2CCC[C@H]2CN2CCNC[C@@H]2CO)CCN1CCCC1CCCC1, the remaining binding was 105 ± 9.3% (Oprm1; radioligand binding; rat brain membranes; 500 nM, pH 7.5, 25 °C, with: 0.87 nM [3H]DAMGO).
For CCCCCCCCCC(=O)CC(=O)Nc1ccccc1O, IC50 read “inactive” (lasR; lasI-gfp reporter, antagonist; Pseudomonas aeruginosa PAO-JP2; with: OdDHL 150 nM).
For C[C@H](N)C(=O)N[C@@H](CCCNC(=N)N)C(=O)N[C@H](C(=O)N[C@@H](CCCC[N+](C)(C)C)C(=O)N[C@@H](CCC(N)=O)C(=O)N[C@H](C(=O)N[C@@H](C)C(=O)N[C@@H](CCCNC(N)=O)C(=O)N[C@@H](CCCCN)C(=O)N[C@@H](CO)C(=O)N[C@H](C(=O)NCC(=O)NCC(=O)N[C@@H](CCCCN)C(=O)N[C@@H](C)C(=O)N[C@@H](Cc1ccc(O)cc1)C(N)=O)[C@@H](C)O)[C@@H](C)O)[C@@H](C)O, “preference over Kme3 peptide” read 1.7 fold (SGF29, TTD (Homo sapiens, UniProt Q96ES7); binding, ITC; relative to: Kme3 peptide KD over compound KD).
CN(/N=C/c1ccccc1C(=O)O)c1nc(-c2ccccc2Cl)cs1 gave an inhibition of -10.2% (HIPK2 (Homo sapiens, UniProt Q9H2X6); enzyme activity, inhibitor; 1 µM).
The inhibition of CN(C)[C@H]1C[C@@]23CC[C@@]4(O2)C(=CC[C@]2(C)[C@@H](c5ccc6ccncc6c5)CC[C@H]24)C=C3[C@@H](O)[C@@H]1O is reported as -8.3% (BTK (Homo sapiens, UniProt Q06187); ATP probe labelling, inhibitor, KiNativ profiling; 1 µM).
CS(C)(=O)=Nc1ccc(-c2ccc(-c3nc4cc(O[C@@H]5CO[C@H]6[C@@H]5OC[C@H]6O)[nH]c4cc3F)cc2)cc1 has an inhibition of -6% (NEK11 (Homo sapiens, UniProt Q8NG66); enzyme activity, inhibitor; 10 µM).
With CCCCCCCCCCCCn1nnc(CC(=O)O)n1 the agonist activity was 1% (lasR; reporter gene, agonist; Escherichia coli JLD271; 10 µM, pSC11 and pJN105L plasmids; relative to: OdDHL at same concentration).
With O=C(N[C@@H]1c2ccccc2C[C@H]1N1CCCC1)c1ccc(-c2ccnc3[nH]ccc23)nc1 the remaining binding was 2.1% (NUAK2; binding, competition with immobilised ligand; 3 µM).
O=C(N1CCCCC1)n1ccnn1 gave an activity ratio of 1.55 (Cytosolic acyl coenzyme A thioester hydrolase (Acot7, Mus musculus, UniProt Q91V12); enzyme activity, inhibitor, competitive ABPP-SILAC, measured: Acot7; mouse T-cells; concentration not given, 4 h, treated in situ; relative to: DMSO).
For C[C@@H](O)[C@@H]1CN([C@H](Cc2ccc3ccccc3c2)CN2CCC[C@H]2CN2CCNC[C@@H]2Cc2ccc3ccccc3c2)CCN1CCCC1CCCC1, the remaining binding was 95.9 ± 7.14% (Oprm1; radioligand binding; rat brain membranes; 500 nM, pH 7.5, 25 °C, with: 0.87 nM [3H]DAMGO).
With CC(C)CC(O)(CC(C)C)c1cn(C(=O)N2CCCC2)nn1 the SILAC ratio was 1.32 (Acyl-protein thioesterase 2 (Mus musculus, UniProt Q9WTL7); probe labelling, inhibitor, competitive ABPP-SILAC, measured: Lypla2; mouse T cells; concentration not given, 4 h, in situ, protein level; relative to: treated over DMSO, lower = more inhibition).
CSCC[C@@H]1NC(=O)[C@H](Cc2ccccc2)NC(=O)[C@H](CS)NC(=O)[C@H](C(C)C)NC(=O)[C@H](Cc2ccccc2)NC1=O has an EC50 ratio of greater than 60 fold (Histidine kinase AgrC (Listeria monocytogenes, UniProt A8E0G3); reporter gene, agonist, agr GFP reporter; relative to: native 6-mer AIP).
With CCOC(=O)[C@@H]1Cc2c(cc([N+](=O)[O-])cc2[N+](=O)[O-])[C@H](O)[C@]12C(=O)Nc1ccc(Br)cc12 the remaining binding was 46% (MAPK3 (Homo sapiens, UniProt P27361); binding, competition with immobilised ligand; 0.1 µM).
For CCCCCCCCCC(=O)CC(=O)Nc1ccccc1, antagonist activity read “inactive” (lasR; reporter gene, antagonist; Escherichia coli, JLD271 with LasR plasmid; concentration not given, with: OdDHL 2 nM).
The activation of Cc1cc(Nc2nc(C[C@@]3(C(=O)O)CCN(Cc4cccc(Cl)c4F)[C@H](C)C3)cc(C)c2F)[nH]n1 is reported as -0.11% (CCKAR (Homo sapiens, UniProt P32238); agonist; 10 µM).
O=C(Nc1ccncc1)c1ccccc1OS(=O)(=O)F has a remaining activity of 36.6% and 36.2% and 36% (Uncharacterized hydrolase SAUSA300_2518; enzyme activity, inhibitor, fluorogenic substrate; 50 µM).
O=C(Cc1cccc(C(F)(F)F)c1)N[C@H]1CCOC1=O has an Emax of 94.9% (sdiA).
C#CCCCCOc1ccc2c(c1)CCCN2C(=O)CCl gave a reactivity ratio of 1.53 (TXNRD1 (Homo sapiens, UniProt Q16881); mass spectrometry profiling; H460 cell lysate; 100 µM over 10 µM, UniProt Q16881; relative to: high over low concentration).

For quick reference, copied from above:
The inhibition of CC(C)[C@H]1NC(=O)C[C@H]2/C=C/CCSSC[C@@H](NC1=O)C(=O)N[C@H](Cc1cccc3ccccc13)C(=O)NCC(=O)O2 is reported as -8.7% (MAP4K2 (Homo sapiens, UniProt Q12851); enzyme activity, inhibitor; 10 µM).
CCCCCC(=O)N[C@H]1CCSC1=O has an Emax of 113% (sdiA).
CSCC[C@@H]1NC(=O)[C@H](Cc2ccccc2)NC(=O)[C@H](CS)NC(=O)[C@H](C(C)C)NC(=O)[C@H](Cc2ccccc2)NC1=O has an EC50 ratio of greater than 60 fold (Histidine kinase AgrC (Listeria monocytogenes, UniProt A8E0G3); reporter gene, agonist, agr GFP reporter; relative to: native 6-mer AIP).
The fluorescence polarization of CC(C)C[C@@H]1NC(=O)[C@H](C(C)C)NC(=O)[C@H](CCC(=O)O)NC(=O)CNC(=O)[C@H]([C@@H](C)O)NC(=O)[C@H](CCC(=O)O)NC(=O)[C@H](CCC(=O)O)NC(=O)[C@H](CC(=O)O)NC(=O)[C@H](C(C)C)NC(=O)[C@H]([C@@H](C)O)NC(=O)CNC(=O)[C@H](CC(=O)O)NC(=O)[C@@H]2CCCN2C1=O is reported as 1.04 a.u. and 0.968 a.u. (KEAP1; Keap1-Nrf2 binding, inhibitor, competitive FP; 0.0015 µM, 30 min, with: Nrf2 peptide probe; lower = stronger inhibition).
CS(C)(=O)=Nc1ccc(-c2ccc(-c3nc4cc(O[C@@H]5CO[C@H]6[C@@H]5OC[C@H]6O)[nH]c4cc3F)cc2)cc1 has an inhibition of -6% (NEK11 (Homo sapiens, UniProt Q8NG66); enzyme activity, inhibitor; 10 µM).
